Assay results pooled from the literature.
A part holds a random share of what one study measured. Changes are numbered by the printed parent chain.

Block 1
Target: PABPC1L2, full length, GST fusion (mouse, UniProt A0ABA7IW68)
Method: RNAcompete
Molecule type: RNA
Medium: in vitro
Tested at: 20 nM
Setting: 7-mer, probes averaged, single round
Relative to: mean of 7-mers
Direction: higher = stronger binding
Construct (chain): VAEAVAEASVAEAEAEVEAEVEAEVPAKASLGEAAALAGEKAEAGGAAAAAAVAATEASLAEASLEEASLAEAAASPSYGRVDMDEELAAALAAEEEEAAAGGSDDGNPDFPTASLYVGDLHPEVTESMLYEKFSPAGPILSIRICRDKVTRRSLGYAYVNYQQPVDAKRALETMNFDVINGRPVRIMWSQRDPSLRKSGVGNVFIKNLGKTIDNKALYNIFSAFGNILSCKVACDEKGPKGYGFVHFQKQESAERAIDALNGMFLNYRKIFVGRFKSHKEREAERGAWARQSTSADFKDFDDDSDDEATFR
| Strand | 7-mer Z-score |
| --- | --- |
| UAUUACC | -0.226 |
| GCUACGC | -0.224 |
| GUUAUGG | -0.0826 |
| GUACAGU | -0.311 |
| CAGGCCU | -0.0989 |
| UCACACG | -0.168 |
| AAAUUAA | 1.02 |
| UGUCGUA | -0.313 |
| GAAUGGU | -0.17 |
| AACAACG | 0.811 |
| ACCCUCG | -0.284 |
| UGUGGCU | -0.171 |
| CUUGCGA | -0.219 |
| AAGCGUU | -0.0971 |
| CCUCUAU | -0.208 |
| AUUUAUC | 0.166 |
| GAUAUAG | -0.182 |
| UUCGGCG | -0.331 |
| UGGCUGU | -0.179 |
| AUCCGAA | -0.00833 |
| UGGUUGU | -0.416 |

Block 2
Target: ABI1, truncated, D143A, DHFR fusion (Arabidopsis thaliana)
Method: DHFR PCA, deep sequencing
Medium: yeast
Setting: methotrexate growth selection, single substitutions
With: (+)-ABA 710 µM
Relative to: wild-type fitted maximum
Direction: higher = stronger binding
Starting sequence: PYL1, truncated, DHFR fusion (Arabidopsis thaliana); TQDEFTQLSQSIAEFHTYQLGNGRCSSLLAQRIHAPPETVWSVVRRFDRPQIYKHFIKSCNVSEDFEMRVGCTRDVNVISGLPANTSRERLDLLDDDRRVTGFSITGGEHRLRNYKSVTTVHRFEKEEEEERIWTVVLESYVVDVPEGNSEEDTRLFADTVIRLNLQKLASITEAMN; partner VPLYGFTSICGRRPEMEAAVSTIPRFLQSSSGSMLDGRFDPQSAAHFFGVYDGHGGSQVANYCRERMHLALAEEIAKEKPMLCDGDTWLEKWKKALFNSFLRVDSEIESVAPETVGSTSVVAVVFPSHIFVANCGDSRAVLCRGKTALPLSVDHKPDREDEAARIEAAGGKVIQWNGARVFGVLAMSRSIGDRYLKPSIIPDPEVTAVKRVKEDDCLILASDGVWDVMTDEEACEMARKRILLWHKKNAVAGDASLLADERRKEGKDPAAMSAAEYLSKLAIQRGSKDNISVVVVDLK
| Change | relative binding score |
| --- | --- |
| C60A | 99.2% |
| A170E | 88.5% |
| I33P | 3.2% |
| E127D | 110% |
| Q19N | 102% |
| K116P | -12.6% |
| G71M | 68.4% |
| R98H | 109% |
| T39D | 102% |
| R24I | 97.8% |
| K58E | 103% |
| V145N | 80.8% |
| L91N | 28.8% |
| G107C | 87.1% |
| G108E | 53% |

Block 3
Target: CREB3L3, bZIP domain (human)
Method: DHFR protein complementation
Medium: yeast
Setting: single substitutions, most at no-binding floor
Relative to: wild-type JUN-FOS pair
Direction: higher = stronger binding
Starting sequence: JUN, bZIP domain (human); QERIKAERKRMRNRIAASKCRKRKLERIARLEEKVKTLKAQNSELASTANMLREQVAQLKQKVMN; partner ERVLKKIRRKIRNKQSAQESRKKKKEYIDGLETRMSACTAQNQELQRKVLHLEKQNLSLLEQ
| Change | binding fitness |
| --- | --- |
| L59T | -1.01 natural log |
| E44R | -1.56 natural log |
| K39L | -1.34 natural log |
| L38S | -1.5 natural log |
| V56P | -1.52 natural log |
| V56G | -1.52 natural log |
| E32Q | -1.46 natural log |
| R30S | -1.4 natural log |
| A46F | -1.56 natural log |
| M51G | -1.53 natural log |
| E33V | -1.49 natural log |
| E54N | -1.42 natural log |
| T48W | -1.39 natural log |
| Q41F | -1.48 natural log |

Block 4
Target: CCNB3, cyclin fold, Cln2 fusion (human)
Method: yeast growth competition, sequencing
Medium: yeast
Setting: weak parent motif
Relative to: not given
Direction: higher = stronger binding
Starting sequence: GMNC docking peptide (human); KNAKRNLSSEFAN; partner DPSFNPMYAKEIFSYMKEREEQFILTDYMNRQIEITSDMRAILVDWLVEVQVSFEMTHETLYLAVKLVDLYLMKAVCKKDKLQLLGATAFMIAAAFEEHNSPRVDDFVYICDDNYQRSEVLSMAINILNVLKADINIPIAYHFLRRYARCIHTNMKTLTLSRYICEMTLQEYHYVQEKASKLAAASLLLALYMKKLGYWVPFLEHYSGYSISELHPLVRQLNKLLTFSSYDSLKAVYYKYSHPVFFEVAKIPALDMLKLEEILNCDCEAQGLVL
| Change | normalised enrichment score |
| --- | --- |
| KNAKRCLSSEFAN [N6C] | 0.326 |
| KNAKRNLSVEFAN [S9V] | 0.51 |
| KNAKRNLSSEFQN [A12Q] | 0.117 |
| KNEKRNLSSEFAN [A3E] | -0.0884 |
| KNYKRNLSSEFAN [A3Y] | -0.345 |
| KNTKRNLSSEFAN [A3T] | 0.24 |
| KYAKRNLSSEFAN [N2Y] | 0.27 |
| KNAKRNLSSERAN [F11R] | 0.122 |
| KNAKRNLSSESAN [F11S] | 0.272 |
| KNAKRNLSSEFKN [A12K] | 0.302 |
| KNAKRNLSSWFAN [E10W] | 0.691 |
| KNAKRNKSSEFAN [L7K] | 0.189 |
| KSAKRNLSSEFAN [N2S] | 0.53 |
| KNAKRNLRSEFAN [S8R] | 0.382 |
| KNASRNLSSEFAN [K4S] | 0.00642 |
| KNAKRNLSSPFAN [E10P] | 0.209 |
| KNAKRYLSSEFAN [N6Y] | -0.457 |
| KNAKRNLSHEFAN [S9H] | 0.335 |
| KNAKRALSSEFAN [N6A] | 0.0508 |
| KNAKRNLSSEDAN [F11D] | 0.361 |
| KNAKRLLSSEFAN [N6L] | -0.372 |

Block 5
Target: CEP164, C-terminal peptide (human)
Method: DHFR complementation, deep sequencing
Medium: yeast
Setting: single substitutions, model-inferred values
Relative to: wild type
Direction: higher = weaker binding
Starting sequence: PDZK1, PDZ domain 2 (human); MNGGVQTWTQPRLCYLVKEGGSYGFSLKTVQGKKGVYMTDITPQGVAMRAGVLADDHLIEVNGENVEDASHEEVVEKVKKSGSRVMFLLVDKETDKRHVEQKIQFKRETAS; partner HNRVKVYRF
| Change | binding free energy change |
| --- | --- |
| V5K | -0.0381 kcal/mol |
| G24F | 0.871 kcal/mol |
| K28I | -0.554 kcal/mol |
| A54L | 0.166 kcal/mol |
| E93T | -0.109 kcal/mol |
| A47T | 0.676 kcal/mol |
| E93W | -0.159 kcal/mol |
| V17I | -0.0917 kcal/mol |
| G63P | 0.555 kcal/mol |
| S111A | -0.147 kcal/mol |
| V5N | 0.0335 kcal/mol |
| R49E | 0.452 kcal/mol |
| V61D | 1.19 kcal/mol |
| E60F | 0.49 kcal/mol |
| L27V | 0.0716 kcal/mol |

Block 6
Target: Sox-I, HMG box (Salpingoeca helianthica)
Method: Spec-seq
Molecule type: double-stranded DNA, one strand shown
Medium: in vitro
Tested at: not given
Setting: whole probe, mean of replicates
Relative to: not given
Direction: lower = stronger binding
Constant ends, left off below: GAGTCGTCTCGTCAGCAC … CCGTAGAGCACTCAGGTC
Target sequence (chain): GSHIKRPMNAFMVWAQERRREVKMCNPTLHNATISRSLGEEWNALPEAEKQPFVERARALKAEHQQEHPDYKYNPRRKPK
| Strand | relative binding energy [ln ratio] |
| --- | --- |
| CATGGAT | 1.02 |
| ATCTGTT | -1.01 |
| CATGTCT | 0.876 |
| CTTTGTT | -2.8 |
| CTATGTT | -0.298 |
| CATGCTC | 0.847 |
| CGGCGTT | 1.07 |
| CATGAGA | 1.06 |
| CATGCCC | 1.15 |
| GCCGGTT | 1.07 |
| CATGTTA | 0.855 |
| AATTGTT | -2.56 |

Block 7
Target: RING finger protein unkempt homolog, zinc fingers 1-6, GST-SBP tag (UNK, Homo sapiens, UniProt Q9C0B0, residues 30-357)
Sequence of UniProt Q9C0B0 (30-357, looked up): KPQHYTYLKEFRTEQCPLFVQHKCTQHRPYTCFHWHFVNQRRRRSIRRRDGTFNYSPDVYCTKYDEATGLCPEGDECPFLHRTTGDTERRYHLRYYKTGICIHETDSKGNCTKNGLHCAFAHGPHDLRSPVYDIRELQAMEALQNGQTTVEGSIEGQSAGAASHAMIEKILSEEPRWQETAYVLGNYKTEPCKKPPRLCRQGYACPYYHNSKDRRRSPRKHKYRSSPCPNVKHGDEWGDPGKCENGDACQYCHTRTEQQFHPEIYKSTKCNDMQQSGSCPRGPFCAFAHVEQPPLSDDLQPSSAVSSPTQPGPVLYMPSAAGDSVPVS
Method: RNA Bind-n-Seq
Molecule type: RNA
Medium: in vitro
Tested at: not given
Setting: RNA with constant flanks, human and mouse sites, ends assumed
Relative to: input RNA pool
Direction: higher = stronger binding
Constant ends, left off below: GGGAGUUCUACAGUCCGACGAUC … CAACAGAGGAUUGAGCAUCA
| Strand | bound/input enrichment [ratio] |
| --- | --- |
| GACAGUGAAGAAGAAAUUAGAGAAGCAUUCCGUGUGUUUGAUAAGGAUGGCAAUGGCUAUAUUAGUGCUGCAGAACUUCGCCAUGUGAUGACAAACCUUGGAGAGAAGUUAACAGAUGAA | 1.17 |
| CCGACGCUGGCGCGGGCACUGUCAAAGCACAGUCUGCUGUCUCCCUUGCCUAGUGUGACAUCAUUCAGACGCUUCUACAGAGGUGACAGCCCAACAGACUCUCAAAAAGACAUGAUUGAA | 0.141 |
| GUUCUUCUCCCAGAAUAUGGAGGCACCAAAGUAGUUCUAGAUGACAAGGAUUAUUUCUUAUUUAGAGAUAGUGACAUUCUUGGAAAGUAUGUCGACUGAAAUCACUGUUGAAAUGGUGUC | 0.866 |
| AAGCCCUGAUGUCAGUGUGUGUAACUGACCUCUGGCCUGGCCUGCACAGAGAAGCCCUAUAAUCACAGGUCUGUGGUGGCCCCGAAAUGGGGGGCCUGCUAGUCAGGAGGAUGCUGUGCA | 0.193 |
| CAUCUGCAGGAUAUUAAAGUGAAGUUUUCAGACCCUGGACAACCUAUGUCUUUUGUGCUAGAGUUUCACUUUGAACCCAACGACUACUUCACCAAUCCUGUCCUGACGAAAACGUACAAG | 0.122 |
| CAGAACCUGCCUUCAGGAUCGUCACGGGUUGGAGCCAUUAAACUUACCUACAUUUCAAAGGUUAGCGAUGCAACUAAGUUAAGGCCAAAGGCAGAGUUUUGUUUUGUUAUGAAUGCAGGA | 0.25 |
| GAAACGGUGUAUGACAUUGCUGUAUCAAAGUUGUAAAAUUAAGCAUUAUUUAUUGAAAACUAUGUAUUUUUUUGUAAAAACCUGAUCACAUAGAGAAUAUCAGUGGCUUGUGCUUGUGCU | 0.525 |
| ACAAUCUCAGAAGAGACUCUGGCCAAUAAUACUUGGUCUUUAAUGUUAAAAGAAGUUCUUUCUUCAAUCUUGAAGGUUCCUGAAGGAUUUUUUUCUGGACUCAUACUCCUUUCAGAGCUG | 0.238 |
| GACAAAUGAAGGGAUUUAGAAGCCAAGUAAAUGUCAUUGGGAAGGAGAGCUACCACCACUGAGUGCUGAACAGUAAACUCAUUUUUCAGAGUUAAAAAAUUAUUUAAAAAAACAAGAUGG | 0.668 |
| AAUUCCAAGGGUUAUACCAAGUCCAUUGAUAUUUGGUCUGUGGGCUGCAUCCUGGCAGAGAUGCUAUCCAACAGGCCUAUCUUCCCAGGAAAGCAUUACCUUGACCAGCUGAAUCACAUC | 0.15 |
| CGUGGAGUUGCCGUUCUGUGCACUGAGUAAAGCUAGACUUUUCUCCAGUCCUCUUUCUGGAAUAGGAAACUCCCAAUAUUUAACCUUCAUUCAUCCUUAACGGUGUGGAAGGGUUGAUGG | 0.134 |
